Assay results collected from several papers.
Parts stem from different laboratories: compare values within a part only. Changes are numbered by the printed parent chain.
Sequence of UniProt Q9ZTX9 (whole entry, looked up): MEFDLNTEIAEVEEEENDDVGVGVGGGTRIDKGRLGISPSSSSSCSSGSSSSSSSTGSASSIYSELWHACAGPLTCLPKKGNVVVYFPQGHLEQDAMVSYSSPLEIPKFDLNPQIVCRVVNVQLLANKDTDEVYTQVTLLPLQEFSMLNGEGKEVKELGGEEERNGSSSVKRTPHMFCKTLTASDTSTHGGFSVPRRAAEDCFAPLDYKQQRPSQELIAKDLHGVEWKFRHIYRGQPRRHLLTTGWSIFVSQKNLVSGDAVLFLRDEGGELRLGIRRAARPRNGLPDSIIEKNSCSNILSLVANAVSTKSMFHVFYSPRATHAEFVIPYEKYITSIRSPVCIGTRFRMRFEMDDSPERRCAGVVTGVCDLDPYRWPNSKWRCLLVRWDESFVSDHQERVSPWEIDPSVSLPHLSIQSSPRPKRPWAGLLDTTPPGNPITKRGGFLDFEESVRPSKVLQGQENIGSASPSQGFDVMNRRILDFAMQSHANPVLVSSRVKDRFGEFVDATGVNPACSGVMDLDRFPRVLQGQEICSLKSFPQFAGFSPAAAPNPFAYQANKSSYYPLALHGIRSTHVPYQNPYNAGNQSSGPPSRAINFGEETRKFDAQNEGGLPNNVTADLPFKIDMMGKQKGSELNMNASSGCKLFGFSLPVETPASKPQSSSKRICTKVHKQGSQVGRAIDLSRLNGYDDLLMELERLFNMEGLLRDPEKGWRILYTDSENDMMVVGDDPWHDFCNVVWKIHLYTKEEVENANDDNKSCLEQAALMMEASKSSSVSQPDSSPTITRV
Sequence of UniProt Q9FX25 (whole entry, looked up): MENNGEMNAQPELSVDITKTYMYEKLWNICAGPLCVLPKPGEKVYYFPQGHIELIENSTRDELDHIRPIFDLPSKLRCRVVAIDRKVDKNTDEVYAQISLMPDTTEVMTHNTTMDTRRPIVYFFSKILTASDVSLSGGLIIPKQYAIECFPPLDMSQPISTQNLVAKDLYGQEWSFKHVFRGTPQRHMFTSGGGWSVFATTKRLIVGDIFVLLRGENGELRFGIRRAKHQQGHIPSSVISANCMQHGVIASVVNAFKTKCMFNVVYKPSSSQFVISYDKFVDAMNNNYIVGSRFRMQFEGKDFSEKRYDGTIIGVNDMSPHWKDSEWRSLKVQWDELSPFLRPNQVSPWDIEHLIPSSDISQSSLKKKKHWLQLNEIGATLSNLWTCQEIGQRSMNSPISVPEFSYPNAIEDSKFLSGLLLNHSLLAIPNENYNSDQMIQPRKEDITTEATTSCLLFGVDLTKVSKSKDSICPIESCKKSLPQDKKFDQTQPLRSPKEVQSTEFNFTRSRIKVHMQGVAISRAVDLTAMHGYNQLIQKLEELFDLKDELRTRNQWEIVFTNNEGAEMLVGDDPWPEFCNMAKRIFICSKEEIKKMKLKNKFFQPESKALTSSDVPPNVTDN
Sequence of UniProt Q94JM3 (whole entry, looked up): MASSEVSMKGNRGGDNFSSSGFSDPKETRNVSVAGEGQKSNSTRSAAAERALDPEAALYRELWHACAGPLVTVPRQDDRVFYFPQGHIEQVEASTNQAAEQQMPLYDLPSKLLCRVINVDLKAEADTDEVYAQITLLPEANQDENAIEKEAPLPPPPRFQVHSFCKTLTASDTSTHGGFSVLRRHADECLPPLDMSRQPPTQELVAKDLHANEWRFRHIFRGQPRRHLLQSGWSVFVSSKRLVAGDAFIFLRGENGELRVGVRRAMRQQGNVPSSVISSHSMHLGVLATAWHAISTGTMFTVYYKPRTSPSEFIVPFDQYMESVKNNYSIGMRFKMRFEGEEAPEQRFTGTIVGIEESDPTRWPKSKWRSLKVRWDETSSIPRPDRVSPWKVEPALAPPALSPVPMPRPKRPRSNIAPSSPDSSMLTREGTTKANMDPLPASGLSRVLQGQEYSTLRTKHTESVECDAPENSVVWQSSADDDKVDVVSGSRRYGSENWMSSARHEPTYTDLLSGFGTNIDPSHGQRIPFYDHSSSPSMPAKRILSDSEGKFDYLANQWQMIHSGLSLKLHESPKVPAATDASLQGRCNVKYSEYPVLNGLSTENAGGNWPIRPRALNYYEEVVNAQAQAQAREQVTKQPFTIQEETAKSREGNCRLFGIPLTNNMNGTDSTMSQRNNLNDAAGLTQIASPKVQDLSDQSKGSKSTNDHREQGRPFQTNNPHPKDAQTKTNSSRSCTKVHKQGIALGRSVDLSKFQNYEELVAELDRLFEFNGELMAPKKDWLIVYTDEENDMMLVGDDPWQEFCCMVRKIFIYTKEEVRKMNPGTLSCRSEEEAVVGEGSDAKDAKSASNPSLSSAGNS
Sequence of UniProt Q84WU6 (whole entry, looked up): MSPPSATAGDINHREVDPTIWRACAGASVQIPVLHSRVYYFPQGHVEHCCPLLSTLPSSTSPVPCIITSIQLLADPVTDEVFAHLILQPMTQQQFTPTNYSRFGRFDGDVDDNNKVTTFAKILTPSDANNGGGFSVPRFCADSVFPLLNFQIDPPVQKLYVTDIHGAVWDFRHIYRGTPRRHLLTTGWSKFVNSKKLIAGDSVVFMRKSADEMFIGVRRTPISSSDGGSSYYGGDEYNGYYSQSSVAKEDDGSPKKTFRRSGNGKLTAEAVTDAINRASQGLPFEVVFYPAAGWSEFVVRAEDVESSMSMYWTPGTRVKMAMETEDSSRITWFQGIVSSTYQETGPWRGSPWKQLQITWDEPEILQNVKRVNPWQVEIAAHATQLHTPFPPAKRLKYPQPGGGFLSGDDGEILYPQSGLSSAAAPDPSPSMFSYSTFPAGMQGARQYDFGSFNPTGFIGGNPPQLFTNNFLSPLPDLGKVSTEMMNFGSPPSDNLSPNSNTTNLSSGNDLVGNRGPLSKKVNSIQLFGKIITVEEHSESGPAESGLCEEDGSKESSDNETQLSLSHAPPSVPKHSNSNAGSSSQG
Sequence of UniProt Q9LQE8 (whole entry, looked up): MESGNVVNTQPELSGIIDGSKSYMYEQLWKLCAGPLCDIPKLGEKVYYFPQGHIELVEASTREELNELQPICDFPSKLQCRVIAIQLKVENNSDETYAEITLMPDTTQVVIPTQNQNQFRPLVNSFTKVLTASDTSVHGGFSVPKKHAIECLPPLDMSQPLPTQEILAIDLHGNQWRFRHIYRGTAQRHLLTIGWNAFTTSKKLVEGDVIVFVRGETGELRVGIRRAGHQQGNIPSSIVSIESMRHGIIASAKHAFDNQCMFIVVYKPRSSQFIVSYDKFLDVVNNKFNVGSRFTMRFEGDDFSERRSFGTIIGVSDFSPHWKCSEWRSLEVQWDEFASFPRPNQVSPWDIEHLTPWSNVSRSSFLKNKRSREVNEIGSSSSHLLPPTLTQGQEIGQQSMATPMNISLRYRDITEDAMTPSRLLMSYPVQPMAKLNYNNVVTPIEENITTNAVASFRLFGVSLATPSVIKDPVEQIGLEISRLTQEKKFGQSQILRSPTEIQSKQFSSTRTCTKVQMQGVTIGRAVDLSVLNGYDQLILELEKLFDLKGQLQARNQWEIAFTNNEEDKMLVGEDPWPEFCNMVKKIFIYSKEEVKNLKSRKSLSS

Series 1
Target: ABI1, truncated, D143A, DHFR fusion (Arabidopsis thaliana)
Method: DHFR PCA, deep sequencing
Matrix: yeast
Notes: methotrexate growth selection, single substitutions
Added: (+)-ABA 58 µM
Baseline: wild-type fitted maximum
Reading: higher = stronger binding
Quantity: relative binding score
Starting sequence: PYL1, truncated, DHFR fusion (Arabidopsis thaliana); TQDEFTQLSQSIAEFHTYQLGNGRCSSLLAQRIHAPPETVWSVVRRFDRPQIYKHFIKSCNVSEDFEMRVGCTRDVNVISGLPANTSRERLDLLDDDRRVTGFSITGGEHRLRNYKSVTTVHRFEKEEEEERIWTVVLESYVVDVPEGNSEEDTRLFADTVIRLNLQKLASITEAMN
S117A: 69.7%
D153R: -2.65%
K168W: 80.9%
A158L: 85.8%
S26A: 80.4%
G102E: 10.3%
P83Q: 31.2%
T86V: 65.7%
V40D: -9.61%
S87P: 7.31%
V145W: 0.103%
I12F: 38.6%
C72M: 74.6%
V143D: -1.91%
E147Q: 81.1%
W41E: 12.6%

Series 2
Target: Sal-like protein 4, full length isoform A (SALL4, Homo sapiens, UniProt Q9UJQ4, residues 1-1053)
Sequence of UniProt Q9UJQ4 (whole entry, looked up): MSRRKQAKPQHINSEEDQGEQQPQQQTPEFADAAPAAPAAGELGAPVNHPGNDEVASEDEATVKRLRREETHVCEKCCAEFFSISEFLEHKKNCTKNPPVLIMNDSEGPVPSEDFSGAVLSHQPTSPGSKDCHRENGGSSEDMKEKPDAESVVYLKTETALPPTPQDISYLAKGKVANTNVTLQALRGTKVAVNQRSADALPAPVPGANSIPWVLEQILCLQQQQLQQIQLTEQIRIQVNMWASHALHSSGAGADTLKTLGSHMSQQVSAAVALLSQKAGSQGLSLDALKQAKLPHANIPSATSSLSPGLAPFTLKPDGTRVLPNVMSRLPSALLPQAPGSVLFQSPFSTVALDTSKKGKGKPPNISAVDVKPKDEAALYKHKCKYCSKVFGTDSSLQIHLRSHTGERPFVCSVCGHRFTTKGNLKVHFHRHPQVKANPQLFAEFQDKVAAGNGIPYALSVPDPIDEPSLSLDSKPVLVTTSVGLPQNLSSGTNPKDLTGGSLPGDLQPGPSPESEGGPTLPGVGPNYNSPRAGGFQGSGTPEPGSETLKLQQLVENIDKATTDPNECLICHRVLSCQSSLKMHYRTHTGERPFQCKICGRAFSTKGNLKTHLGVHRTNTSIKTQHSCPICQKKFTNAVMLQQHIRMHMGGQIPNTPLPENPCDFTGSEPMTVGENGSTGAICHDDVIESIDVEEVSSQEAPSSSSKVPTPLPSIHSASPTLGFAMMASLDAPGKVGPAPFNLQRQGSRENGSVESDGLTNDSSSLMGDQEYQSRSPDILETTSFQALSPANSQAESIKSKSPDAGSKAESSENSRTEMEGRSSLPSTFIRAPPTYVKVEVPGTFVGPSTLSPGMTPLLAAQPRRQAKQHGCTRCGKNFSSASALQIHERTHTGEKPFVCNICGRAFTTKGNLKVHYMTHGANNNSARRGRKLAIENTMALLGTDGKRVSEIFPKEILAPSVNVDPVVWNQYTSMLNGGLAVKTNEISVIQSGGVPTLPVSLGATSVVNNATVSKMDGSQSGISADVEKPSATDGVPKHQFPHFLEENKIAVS
Method: universal PBM
Molecule type: double-stranded DNA, one strand shown
Matrix: in vitro
Concentration: 600 nM
Notes: 8-mer, flanks averaged, mean of replicates
Reading: higher = stronger binding
Quantity: E-score
GTTTGGCA: -0.0123
ACTGGTTC: -0.104
AATGGGGA: -0.00442
ACGCTCTG: -0.193
AAAGTGCC: -0.183
CCGCTGAA: -0.0976
GAATTCGA: 0.0368
GAGACGGC: -0.256
TATAAACA: 0.352
AACGCAGT: -0.0894
ATCCGCAG: -0.152
GCCCATAA: 0.0675
GTTCTGCA: -0.0386
AAGTTATG: 0.378
GACGTGCC: -0.338
ACTTAAAA: 0.245
CACCTGTC: -0.147
CTGTGTGA: -0.0195

Series 3
Target: Centromere-binding protein 1, full length, N-terminal tag (CBF1, Saccharomyces cerevisiae, UniProt P17106, residues 1-351)
Sequence of UniProt P17106 (whole entry, looked up): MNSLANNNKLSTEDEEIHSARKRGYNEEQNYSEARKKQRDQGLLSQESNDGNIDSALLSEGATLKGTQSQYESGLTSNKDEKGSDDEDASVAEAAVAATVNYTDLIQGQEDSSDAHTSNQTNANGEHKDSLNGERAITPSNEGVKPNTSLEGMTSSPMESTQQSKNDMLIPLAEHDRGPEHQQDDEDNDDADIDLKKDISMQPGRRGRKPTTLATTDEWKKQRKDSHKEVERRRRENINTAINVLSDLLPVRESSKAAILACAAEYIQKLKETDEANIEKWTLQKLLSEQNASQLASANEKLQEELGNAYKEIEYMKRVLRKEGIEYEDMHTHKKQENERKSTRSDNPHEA
Method: protein-binding microarray
Molecule type: double-stranded DNA, one strand shown
Matrix: in vitro
Concentration: 0.8 µM
Notes: whole 60-bp probe, no competitor
Reading: higher = stronger binding
Quantity: fluorescence intensity
Shared flanks, not repeated: … GTCTTGATTCGCTTGACGCTGCTG
GAAAACACGTGTACGCACGTAGCCAACGATTGATAG: 6430 a.u.
GAATTTACAGTAGCGCTGATGGCATCTTGTGTGTAG: 470 a.u.
GAAGTTTAGCATTCACGTGTAACTGCAATGAATTAG: 4210 a.u.
TGTACGAAGCTATTGAACACGTCTATAGTAGTTAGG: 538 a.u.
CTATTTCTAATGCATCAGCTGTTATGCGCACTATTC: 631 a.u.
GAATTTCAGTTTCCGCGCGTGACTTAGATTTGGTAG: 2520 a.u.
GAACAATTCACTTAGTACGTGGTCTTGGAGTTATAG: 551 a.u.
GAATTAGTGCCCAAACACGGGATGTTTCAAGTATAG: 618 a.u.
CTATCTACCATTGGTCACGGTCTCAGTATATTTTTC: 1320 a.u.
GAATATAAAAGTAGCCACATGGTTCATAACATCTAG: 620 a.u.
CTAATCGAATGCTTGCGCATGCCAATGCACAGATTC: 503 a.u.
GAAAGACGTGTCCGCCGGGTGATGAAGCTGTGATAG: 517 a.u.
GAAGGATGTGCATATCACGTTCGGATCTATGTATAG: 795 a.u.
CTACAACACCACCACCACCAATAGTACTACCTGTTC: 534 a.u.
CCTAACTACTATACTCAACTGATATAGCTTCGTACA: 526 a.u.
CTATGTTTTGCCCATCAGCTCAACTGTTTTAGGTTC: 527 a.u.
TGTACGAAGCTATTCCACGATGATATAGTAGTTAGG: 538 a.u.
GAACAACAACTACTTATCGTGACTTGTCTAAAATAG: 617 a.u.
CTATATCAACGCGTCCACACCACCTCACCCTCGTTC: 540 a.u.
GAAGATAGCGCCCATCATATGATCATCCCATTATAG: 751 a.u.
GAATGTGCTAGTGGTGGCGTGATGCAAGAAGCTTAG: 1290 a.u.
TGTACGAAGCTATGTCATGTTTCTATAGTAGTTAGG: 569 a.u.
CTACAGATATAATAGCACGAGAAAAAACTCGTTTTC: 600 a.u.
CTAAGATCGCACCAGCGCGTGGGGCTCTTTCATTTC: 480 a.u.
CTACGCTTTACGGGTCACGCGCGGATTTTGACTTTC: 3070 a.u.

Series 4
Target: Histone acetyltransferase KAT6A, winged helix 2, GST fusion (KAT6A, Homo sapiens, UniProt Q92794, residues 85-181)
Method: protein binding microarray
Molecule type: double-stranded DNA, one strand shown
Matrix: in vitro
Concentration: not given
Notes: 8-mer, flanks averaged, mean of 2 arrays, mostly near background
Baseline: not given
Reading: higher = stronger binding
Quantity: E-score
Target sequence (chain): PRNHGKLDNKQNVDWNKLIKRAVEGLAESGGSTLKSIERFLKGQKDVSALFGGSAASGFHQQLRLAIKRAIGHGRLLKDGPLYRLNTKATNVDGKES
CGGATGCC: 0.176
GATGTGTA: -0.2
GGAGGAAA: 0.143
AGCTGGAC: -0.0665
CGCCCAAC: 0.139
ACTTGCCG: 0.0949
ATACTACC: -0.238
CATACAAA: 0.0711
CGAATAGA: -0.0285
CGATATCG: 0.115
ATCCGCCA: 0.0701
AGTGAAGG: -0.0833
GAGCTTTA: 0.0563
CGGAACCA: 0.176
ATGCGGCC: 0.0528
CACGCTGG: 0.0841
GACCGACC: 0.0891
CACGAATG: -0.0784
ATACATTA: 0.051

Series 5
Sequence: B1 (IAA30)
Method: two-hybrid
Notes: weak activation fusion
Reading: higher = firmer interaction
Quantity: positive tests
T1: itself; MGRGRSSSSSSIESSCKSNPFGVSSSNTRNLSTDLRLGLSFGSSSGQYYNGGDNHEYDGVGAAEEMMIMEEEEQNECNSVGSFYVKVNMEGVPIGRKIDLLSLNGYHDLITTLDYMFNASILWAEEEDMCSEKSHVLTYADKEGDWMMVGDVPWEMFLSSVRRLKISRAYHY
B1: IAA30 (Arabidopsis thaliana, UniProt Q9M1R4); chain MGRGRSSSSSSIESSCKSNPFGVSSSNTRNLSTDLRLGLSFGSSSGQYYNGGDNHEYDGVGAAEEMMIMEEEEQNECNSVGSFYVKVNMEGVPIGRKIDLLSLNGYHDLITTLDYMFNASILWAEEEDMCSEKSHVLTYADKEGDWMMVGDVPWEMFLSSVRRLKISRAYHY
ARF4 660-788 (Arabidopsis thaliana, UniProt Q9ZTX9); baseline: out of 4 tests: 0
ARF22 498-598 (Arabidopsis thaliana, UniProt Q9C8N7); baseline: out of 4 tests: 1
ARF17 (Arabidopsis thaliana, UniProt Q84WU6); baseline: out of 3 tests: 0
ARF13 (Arabidopsis thaliana, UniProt Q9FX25); baseline: out of 4 tests: 0
ARF2 727-859 (Arabidopsis thaliana, UniProt Q94JM3); baseline: out of 4 tests: 0
ARF6 790-935 (Arabidopsis thaliana, UniProt Q9ZTX8); baseline: out of 4 tests: 2
ARF14 497-605 (Arabidopsis thaliana, UniProt Q9LQE8); baseline: out of 2 tests: 0
ARF11 500-622 (Arabidopsis thaliana, UniProt Q9ZPY6); baseline: out of 4 tests: 1
T1, itself; baseline: out of 4 tests: 0

Series 6
Target: CCNB1, cyclin fold, Cln2 fusion (human)
Method: yeast growth competition, sequencing
Matrix: yeast
Notes: weak parent motif
Baseline: not given
Reading: higher = stronger binding
Quantity: normalised enrichment score
Starting sequence: CDC6 docking peptide (human); TLKGRRLVFDNQL
L13T: -0.354
D10L: -0.118
D10E: -1.03
K3D: -0.0255
T1I: 0.26
T1R: 0.0377
V8Q: -0.49
V8N: 0.797
N11D: 0.483
T1W: 1.11
G4S: -1.7
Q12G: 1.23
Q12T: 0.481
L7A: 0.422
L2V: 0.626
R5K F9L: 0.385
D10M: 1.49
Q12A: 0.513
K3Y: 0.632
L13A: 0.678
L13S: 0.649
N11I: -0.377
G4V: -0.498
R6N: 0.302

For quick reference, copied from above (series 1):
K168W: 80.9%
D153R: -2.65%
A158L: 85.8%
C72M: 74.6%
I12F: 38.6%
W41E: 12.6%
G102E: 10.3%
V143D: -1.91%
V40D: -9.61%
V145W: 0.103%
E147Q: 81.1%
T86V: 65.7%
S87P: 7.31%
S117A: 69.7%
